Assay results pooled from the literature.
Lines come from different studies, so protocols differ. Numbers after ± are the reported error.
CDK19: Cyclin-dependent kinase 19 (CDK19, Homo sapiens, UniProt Q9BWU1)
Sequence of UniProt Q9BWU1 (whole entry, looked up): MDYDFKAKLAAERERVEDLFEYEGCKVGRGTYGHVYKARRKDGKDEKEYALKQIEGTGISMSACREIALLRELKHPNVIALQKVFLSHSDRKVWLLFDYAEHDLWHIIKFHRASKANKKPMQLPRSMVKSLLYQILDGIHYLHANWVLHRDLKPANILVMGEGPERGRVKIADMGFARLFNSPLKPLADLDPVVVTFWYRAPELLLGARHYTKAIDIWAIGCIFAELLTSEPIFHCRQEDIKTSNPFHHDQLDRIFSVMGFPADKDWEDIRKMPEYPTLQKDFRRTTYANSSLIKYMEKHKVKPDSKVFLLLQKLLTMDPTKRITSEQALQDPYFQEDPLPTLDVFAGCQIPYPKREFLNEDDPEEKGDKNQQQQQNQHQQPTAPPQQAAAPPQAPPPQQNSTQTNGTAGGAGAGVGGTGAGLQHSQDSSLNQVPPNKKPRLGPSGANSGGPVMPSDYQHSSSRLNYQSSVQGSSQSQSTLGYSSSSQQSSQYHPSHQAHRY
CDK19 with cyclin C: Cyclin-dependent kinase 19, with cyclin C (CDK19, Homo sapiens, UniProt Q9BWU1)

Nc1ncnc2occ(-c3ccc(NC(=O)Nc4cc(C(F)(F)F)ccc4F)cc3)c12  remaining activity (CDK19; enzyme activity, inhibitor; 20 µM): 1.1%
COc1ccc(F)cc1C(=O)NCc1ccc(-c2nn([C@@H](C)C(F)(F)F)c(N)c2C(N)=O)cc1  remaining activity (CDK19 with cyclin C; kinase activity, inhibitor, HotSpot radiometric; 1000 nM, added: ATP at Km): 106 ± 5.4%
C#Cc1cnc(Nc2ccnc(CO)c2)nc1Nc1ccccc1S(C)(=O)=NC#N (centres unmarked)  remaining activity (CDK19; kinase activity, kinase selectivity panel; 1 µM; relative to: control): 98%
CN1CCN(C(=O)c2ccc3cc(CCNc4ncnc5ccc(C#N)cc45)ccc3c2)CC1  residence time (CDK19 with cyclin C; TR-FRET kinetics): 2.65 min
O=C(CSc1nc2nccnc2c(=O)n1CCc1ccccc1)Nc1nccs1  inhibition (CDK19 with cyclin C; kinase activity, inhibitor; 10 µM): 17%
O=C(NC1CCC1)c1ccc2nc(-c3cccc(NS(=O)(=O)NCCN4CCCCC4)c3)cn2c1  remaining activity (CDK19; enzyme activity; 10 µM): 100%
CS(=O)(=O)Nc1cccc(-c2csc(NC(=O)CSc3nc4nccnc4c(=O)n3CCc3ccccc3)n2)c1  inhibition (CDK19 with cyclin C; kinase activity, inhibitor; 10 µM): 1%
C=CC(=O)N1CCC[C@@H](n2nc(-c3ccc(Oc4ccccc4)cc3)c3c(N)ncnc32)C1  remaining activity (CDK19 with cyclin C; kinase activity, inhibitor, HotSpot radiometric; 100 nM, added: ATP 10 µM): 96.6 ± 0.7%
C1=C/COCc2cc(ccc2OCCN2CCCC2)Nc2nccc(n2)-c2cccc(c2)COC/1  percent of control (CDK19; concentration not given, gene name CDK11): 97%
CN1CCN(C(=O)c2ccc3cc(CCNc4ccnc5ccc(C#N)cc45)ccc3c2)CC1  residence time (CDK19 with cyclin C; TR-FRET kinetics): 6.13 min
CNc1ncc2c(/C=C/C(=O)N3CCC(OC)CC3)nn(Cc3cccc(C(F)(F)F)c3)c2n1  remaining activity (CDK19 with cyclin C; kinase activity, inhibitor; 1 µM; relative to: untreated control): 96%

Excerpt of the above:
CN1CCN(C(=O)c2ccc3cc(CCNc4ncnc5ccc(C#N)cc45)ccc3c2)CC1  residence time (CDK19 with cyclin C; TR-FRET kinetics): 2.65 min
